Assay results pooled from the literature.
Parts stem from different laboratories: compare values within a part only. Changes are numbered by the printed parent chain.

Sample 1
Target: Interferon regulatory factor 5, full length, phosphomimetic (IRF5, Homo sapiens, UniProt Q13568-2, residues 1-514, S451D/S453D/S456D/S462D)
Method: protein-binding microarray
Molecule type: double-stranded DNA, one strand shown
Sample: in vitro
Tested at: 940 nM top
Notes: 60-bp whole probe
With: salmon DNA 0.4 mg/ml
Baseline: random background probes
Reading: higher = stronger binding
Quantity: fitted relative affinity
Constant ends, left off below: GCCTAGCAC … GTCTTGATTCGCTTGACGCTGCTG
Sequence = GACGAAGTGAGTTTCGAGACGTGCTAG; result = 3.52 z-score
Sequence = TCAGTTTCCCCTATTTAACTGTGCTAG; result = 3.22 z-score
Sequence = GACGGTCTCATTATCCTGACGTGCTAG; result = 1.68 z-score
Sequence = GACGGTTTCGACACTGGGGGCGTGCTA; result = 9.28 z-score
Sequence = TCCACTTTCTTTTGCTTGTTGTGCTAG; result = 2.35 z-score
Sequence = TCAGATTACATATATGTTACTGTGCTA; result = -0.345 z-score

Sample 2
Target: Histone acetyltransferase KAT6A, winged helix 1, GST fusion (KAT6A, Homo sapiens, UniProt Q92794, residues 1-85)
Method: protein binding microarray
Molecule type: double-stranded DNA, one strand shown
Sample: in vitro
Tested at: not given
Notes: 8-mer, flanks averaged, mean of 2 arrays, mostly near background
Baseline: not given
Reading: higher = stronger binding
Quantity: E-score
Residues (chain): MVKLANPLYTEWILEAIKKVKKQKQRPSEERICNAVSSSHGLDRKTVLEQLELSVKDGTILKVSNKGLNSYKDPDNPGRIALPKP
Sequence = CAAGAGTC; result = -0.251
Sequence = TAACGATA; result = -0.131
Sequence = GCCAGTAC; result = -0.0928
Sequence = TGTATGAA; result = -0.043
Sequence = ACCGCGGT; result = 0.373
Sequence = TGCATGAA; result = -0.151
Sequence = AAACCCGG; result = 0.309

Sample 3
Target: CCNA1, cyclin fold, Cln2 fusion (human)
Method: yeast growth competition, sequencing
Sample: yeast
Notes: weak parent motif
Baseline: not given
Reading: higher = stronger binding
Quantity: normalised enrichment score
Starting sequence: E2F1 docking peptide (human); PPVKRRLDLETDH; partner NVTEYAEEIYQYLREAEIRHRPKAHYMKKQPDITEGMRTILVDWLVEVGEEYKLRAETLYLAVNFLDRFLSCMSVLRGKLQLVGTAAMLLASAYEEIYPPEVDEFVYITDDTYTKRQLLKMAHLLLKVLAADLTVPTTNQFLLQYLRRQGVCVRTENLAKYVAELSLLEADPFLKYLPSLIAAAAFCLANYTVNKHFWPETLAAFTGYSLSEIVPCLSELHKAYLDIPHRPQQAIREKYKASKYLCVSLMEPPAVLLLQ
Substitution = PEVKRRLDLETDH [P2E]; result = 0.485
Substitution = PPVKRRLDLWTDH [E10W]; result = 0.442
Substitution = PPVKRRLDLETDR [H13R]; result = 0.22
Substitution = PPVKRRRDLETDH [L7R]; result = 0.246
Substitution = PPVKWRLDLETDH [R5W]; result = 0.211
Substitution = SPVKRRLDLETDH [P1S]; result = 0.125
Substitution = PPVKRRFDLETDH [L7F]; result = 0.134
Substitution = PPVKRRIDLETDH [L7I]; result = 0.454

Single results of other studies
Substance = PhoQ, residues 284 288 289 292 302 303 TASMAF; target = PhoP, residues 12 14 15 18 19 AWHSL (Escherichia coli, UniProt P23836); assay = Sort-seq, refers to: YFP reporter; system = E. coli; setting = PhoQ-PhoP variant library, with: 10 µM Mg2+; how to read = baseline: high Mg2+ state, higher = stronger signaling; quantity = fold induction; result = 2.2

Excerpt of the above (sample 1):
Sequence = GACGGTTTCGACACTGGGGGCGTGCTA; result = 9.28 z-score
Sequence = GACGAAGTGAGTTTCGAGACGTGCTAG; result = 3.52 z-score
Sequence = GACGGTCTCATTATCCTGACGTGCTAG; result = 1.68 z-score
Sequence = TCAGTTTCCCCTATTTAACTGTGCTAG; result = 3.22 z-score
